Measured values collected from several papers.
Compare with care: the assays were run in different laboratories. Numbers after ± are the reported error.

NCCCC[C@H](N)C(=O)O — log2 fold change (binding, MIDAS equilibrium dialysis LC-MS; A2AR-BRIL thermostabilized; concentration not given; reference: no-protein control): -0.0167
Cc1cc([C@H]2C[C@H]3[C@@H](CF)SC(N)=N[C@@]3(c3ccc(F)cc3F)CO2)on1 — brain Aβ40 level (item: Aβx-40; wild-type mouse, brain; subcutaneous, 100 mg/kg, 1 h): 1.97 ng/g
O=C[C@H](O)[C@H]1OC(=O)[C@@H](O)[C@H]1O — log2 fold change (binding, MIDAS equilibrium dialysis LC-MS; A2AR-BRIL thermostabilized; concentration not given; reference: no-protein control): -0.0965
Cc1coc([C@H]2C[C@H]3[C@@H](CF)SC(N)=N[C@@]3(c3ccc(F)cc3F)CO2)n1 — Aβ40 level (item: Aβx-40; Mus musculus wild-type, cerebrospinal fluid; subcutaneous, 80 mg/kg, 5 h): 0.61 ng/mL
CC(C)NCC(O)c1ccc(O)c(O)c1 (stereo not drawn) — sarcomere length (ventricular cardiomyocytes, C57BL/6 mouse; dose not given, 0.8 s): 1.64 µm
OC(CCN1CCCCC1)(c1ccccc1)C1CC2C=CC1C2 (stereo not drawn) — change, beta power, EEG O1-Pz (resting-state EEG; healthy elderly humans; oral, 4 mg, eyes open, LS mean; reference: baseline): -7.8%
CC1(C)OCCn2c1nc1c(N3CCOCC3)nc(-c3cnc(N)nc3)nc12 — GSEA enrichment score (RNA sequencing, item: HALLMARK_EPITHELIAL_MESENCHYMAL_TRANSITION; MB002 tumour; concentration not given; reference: vehicle, direction not given): 0.182
N#Cc1ccc2c(c1)[C@H]1CCCN(C(=O)c3ccc4[nH]cnc4c3)[C@H]1C2 — fasting plasma glucose (T2DM patients with overweight or obesity, plasma; oral, 10 mg, day 15 (360 h), multiple dosing, mean): 128 mg/dL
O=P(O)(O)C(Cl)(Cl)P(=O)(O)O — GFAP-positive area difference (immunostaining; mouse, sham-operated, meninges; dose not given; reference: day 1 over day 7): 0.14%
C[C@H](Oc1ccc(Br)cc1-c1ccon1)C(=O)O — difference from placebo (last response latency; human, tibialis anterior muscle; 800 mg, 15 Hz, SAD): -0.518%
CC1(C)C(/C=C/C=C/C=C/C=C2\N(CCCCS(=O)(=O)O)c3ccc4ccccc4c3C2(C)C)=[N+](CCCCS(=O)(=O)[O-])c2ccc3ccccc3c21 — recurrent tumour volume (mouse MMTV-PyMT mammary tumour model; dose not given, 20 days post-surgery, after image-guided surgery): 159 mm³
O=C(O)C(O)c1ccccc1 (racemic) — log2 fold change (binding, MIDAS equilibrium dialysis LC-MS; A2AR-BRIL thermostabilized; concentration not given; reference: no-protein control): 0.0431
NC(=O)c1cnc2[nH]ccc2c1N[C@@H]1[C@@H]2CC3C[C@H]1C[C@@](O)(C3)C2 — percent change (CD4+ central memory T cells, flow cytometry; Caucasian humans, peripheral blood; 20 mg single dose; reference: baseline): -1.28%
Cc1cn([C@H]2C[C@H](O)[C@@H](COP(=O)(O)O)O2)c(=O)[nH]c1=O — log2 fold change (binding, MIDAS equilibrium dialysis LC-MS; A2AR-BRIL thermostabilized; concentration not given; reference: no-protein control): 0.199
O=C(O)CNC(=O)Cc1ccccc1 — sarcomere length (ventricular cardiomyocytes, C57BL/6 mouse; dose not given, 0.572 s): 1.63 µm
CC(CN)C(=O)O (stereo not drawn) — log2 fold change (binding, MIDAS equilibrium dialysis LC-MS; A2AR-BRIL thermostabilized; concentration not given; reference: no-protein control): -0.0641
N#Cc1ccn2c(-c3ccncc3)c(-c3ccc(F)cc3)nc2c1 — log2 fold change (kinase binding, competitor, MIB/MS competition, item: SAK1; Candida albicans cell lysate; 10 µM; reference: DMSO): -0.0369
Cc1ncc(CO)c(C=O)c1O — log2 fold change (binding, MIDAS equilibrium dialysis LC-MS; A2AR-BRIL thermostabilized; concentration not given; reference: no-protein control): 0.08
C=CCn1c(=O)c2cnc(Nc3ccc(N4CCN(C)CC4)cc3)nc2n1-c1ccc2c(n1)[C@@](O)(CC)CC2 — tumour volume difference (SW-403 xenograft, BALB/c nude mice; oral, 80 mg/kg once daily x 28, day 27): 816 ± 49.7 mm3
Nc1nc2c(ncn2[C@@H]2O[C@H](COP(=O)(O)O)[C@@H](O)[C@H]2O)c(=O)[nH]1 — log2 fold change (binding, MIDAS equilibrium dialysis LC-MS; A2AR-BRIL thermostabilized; concentration not given; reference: no-protein control): -0.139
N#CCC1CCN(c2nc(Nc3ccc(N4CCC(O)CC4)cc3)c3c(=O)[nH]ncc3n2)CC1 — GIF level change (Olink multiplex; human, serum; 80 mg, day 15, unit not given; reference: baseline): 1.39
